# Measured values from different studies.
# Protocols differ between the studies behind these lines. ± marks the error that the study gave.
Compound,target or system,assay,test system,conditions,scale,quantity,result
CC(C)OC(=O)[C@@H](N)Cc1ccc(OP2(=O)CO[C@@H](Cn3ccc(N)nc3=O)CO2)cc1 (stereo partly shown),vaccinia virus,viral replication,,,,IC50,30 µM
COc1cc2c(O)c3c(c(-c4ccc5c(c4)OCO5)c2cc1OC)C(=O)N(/N=C/c1ccc(C#N)cc1)C3,VSV pseudotyped with Ebola virus GP,"viral entry, item: GFP",HeLa,,,IC50,1.69 ± 0.233 µM
CNC(=O)[C@@H](NC(=O)[C@H](CC(C)C)[C@H](O)C(=O)NO)C(C)(C)C,Daboia russelii venom proteases (SVMP),"protease activity, inhibitor",AP population,"100 µM, with: azocasein substrate",relative to: venom alone,remaining activity,0%
OCCOCCN1CCN(C(c2ccccc2)c2ccc(Cl)cc2)CC1 (stereo not shown),Ebola virus Zaire,HIV/EBOV pseudovirion entry,A549,48 h,,IC50,3.4 ± 2.2 µM
Cn1cnc(Cn2c(=O)[nH]/c(=N\c3cc4cn(C)nc4cc3Cl)n(Cc3cc(F)c(F)cc3F)c2=O)n1,,,"human, moderate renal impairment","oral, 375 mg, vessel puncture site haemorrhage TEAE, Severe severity",,patients with adverse event,0%
COC(=O)[C@@H](N)[C@@H](C)OP1(=O)CO[C@@H](Cn2cnc3c(N)ncnc32)CO1 (stereo partly shown),cowpox virus,viral replication,,,,IC50,20 µM
CCN(CCO)CCCC(C)Nc1ccnc2cc(Cl)ccc12 (stereo not shown),SARS-CoV-2 Delta,viral replication,Vero,48 h,,IC50,22 µM
CN1CCN(C(=O)c2cc3cc(Cl)ccc3[nH]2)CC1,Ebola virus Zaire,HIV/EBOV pseudovirion entry,A549,48 h,,IC50,16.6 ± 3.9 µM
COC(=O)[C@@H](N)Cc1ccc(OP2(=O)CO[C@@H](Cn3ccc(N)nc3=O)CO2)cc1 (stereo partly shown),vaccinia virus,viral replication,,,,IC50,4 µM
C#CCCCOc1c2c(c(-c3ccc4c(c3)OCO4)c3cc(OC)c(OC)cc13)C(=O)OC2,VSV pseudotyped with Marburg virus GP,"viral entry, item: GFP",,,,IC50,0.402 ± 0.0459 µM
CC[C@H](C)[C@H](NC(=O)[C@H](CC(C)C)NC(=O)[C@H](Cc1c[nH]c2ccccc12)NC(=O)[C@H](CCC(N)=O)NC(=O)[C@@H](NC(=O)[C@H](Cc1ccccc1)NC(=O)[C@H](C)NC(=O)[C@H](CCCCNC(=O)COCCOCCNC(=O)COCCOCCNC(=O)CC[C@H](NC(=O)CCCCCCCCCCCCCCCCCCC(=O)O)C(=O)O)NC(=O)[C@H](CCC(N)=O)NC(=O)[C@H](C)NC(=O)[C@@H](NC(=O)[C@H](CCCCN)NC(=O)[C@H](CC(=O)O)NC(=O)[C@H](CC(C)C)NC(=O)C(C)(C)NC(=O)[C@@H](NC(=O)[C@H](CO)NC(=O)[C@H](Cc1ccc(O)cc1)NC(=O)[C@H](CC(=O)O)NC(=O)[C@H](CO)NC(=O)[C@@H](NC(=O)[C@H](Cc1ccccc1)NC(=O)[C@@H](NC(=O)CNC(=O)[C@H](CCC(=O)O)NC(=O)C(C)(C)NC(=O)[C@@H](N)Cc1ccc(O)cc1)[C@@H](C)O)[C@@H](C)O)[C@@H](C)CC)[C@@H](C)CC)C(C)C)C(=O)N[C@@H](C)C(=O)NCC(=O)NCC(=O)N1CCC[C@H]1C(=O)N[C@@H](CO)C(=O)N[C@@H](CO)C(=O)NCC(=O)N[C@@H](C)C(=O)N1CCC[C@H]1C(=O)N1CCC[C@H]1C(=O)N1CCC[C@H]1C(=O)N[C@@H](CO)C(N)=O,,item: treatment-emergent catheter site bruise,healthy subjects,"0.5 mg, multiple ascending dose",,subjects with adverse event,16.7%
CN(C)CCOC(c1ccc(Cl)cc1)c1ccccn1 (stereo not shown),Ebola virus Zaire,HIV/EBOV pseudovirion entry,A549,48 h,,IC50,29.5 ± 8.1 µM
Nc1ncnc2c([C@@H]3N[C@H](CO)[C@@H](O)[C@H]3O)c[nH]c12,Marburg virus,surface glycoprotein expression,"HeLa, Musoke","100 µM, 12 h",,inhibition,94.3%

# Some of these lines once more:
Compound,target or system,assay,test system,conditions,scale,quantity,result
CC(C)OC(=O)[C@@H](N)Cc1ccc(OP2(=O)CO[C@@H](Cn3ccc(N)nc3=O)CO2)cc1 (stereo partly shown),vaccinia virus,viral replication,,,,IC50,30 µM
COc1cc2c(O)c3c(c(-c4ccc5c(c4)OCO5)c2cc1OC)C(=O)N(/N=C/c1ccc(C#N)cc1)C3,VSV pseudotyped with Ebola virus GP,"viral entry, item: GFP",HeLa,,,IC50,1.69 ± 0.233 µM
